Measured values pooled from the literature.
Numbered parts are unrelated; each lists some results of a single study. Changes are numbered by the printed parent chain.
Chain of UniProt O15294 (whole entry, looked up): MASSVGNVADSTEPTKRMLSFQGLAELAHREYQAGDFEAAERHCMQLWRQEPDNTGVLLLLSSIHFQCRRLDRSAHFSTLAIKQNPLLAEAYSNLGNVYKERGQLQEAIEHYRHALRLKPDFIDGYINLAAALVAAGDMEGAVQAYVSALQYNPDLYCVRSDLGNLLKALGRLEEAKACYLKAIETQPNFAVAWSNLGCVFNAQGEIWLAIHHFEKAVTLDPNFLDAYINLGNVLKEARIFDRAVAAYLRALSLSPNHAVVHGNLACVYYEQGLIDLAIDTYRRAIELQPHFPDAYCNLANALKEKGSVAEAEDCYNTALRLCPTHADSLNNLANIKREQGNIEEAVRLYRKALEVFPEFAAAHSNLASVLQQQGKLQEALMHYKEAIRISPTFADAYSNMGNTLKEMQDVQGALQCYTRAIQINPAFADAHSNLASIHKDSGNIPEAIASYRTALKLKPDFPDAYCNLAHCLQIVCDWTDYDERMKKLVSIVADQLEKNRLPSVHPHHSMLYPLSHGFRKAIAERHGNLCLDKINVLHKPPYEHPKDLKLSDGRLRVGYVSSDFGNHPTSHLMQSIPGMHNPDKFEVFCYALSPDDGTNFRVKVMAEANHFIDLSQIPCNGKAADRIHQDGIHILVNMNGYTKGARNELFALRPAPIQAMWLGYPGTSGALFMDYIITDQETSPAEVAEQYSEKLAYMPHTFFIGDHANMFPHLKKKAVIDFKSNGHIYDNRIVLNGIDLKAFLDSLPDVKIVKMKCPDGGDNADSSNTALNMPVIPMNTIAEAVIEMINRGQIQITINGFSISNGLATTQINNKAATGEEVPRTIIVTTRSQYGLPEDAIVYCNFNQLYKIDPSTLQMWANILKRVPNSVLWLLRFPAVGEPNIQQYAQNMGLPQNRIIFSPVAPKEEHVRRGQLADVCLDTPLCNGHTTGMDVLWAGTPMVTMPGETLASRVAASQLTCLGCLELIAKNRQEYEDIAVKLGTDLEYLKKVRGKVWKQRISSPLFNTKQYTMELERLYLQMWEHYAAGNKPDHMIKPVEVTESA

Block 1
Target: TAR DNA-binding protein 43, full length, His tag (TARDBP, Homo sapiens, UniProt Q13148, residues 1-414)
Method: RNA Bind-n-Seq
Form: RNA
Sample: in vitro
Tested at: 20 nM
Setting: 6-mer, flanks averaged, single round
Added: 150 mM KCl
Reference: input library
Reading: higher = stronger binding
| Sequence | 6-mer enrichment (R) |
| --- | --- |
| CAAGCG | 1.03 |
| UGGGAU | 1.76 |
| UGCCCG | 0.744 |
| GUAGGG | 3.89 |
| CUGUGG | 1.44 |
| GCCUAA | 0.699 |
| GGCCGG | 3.6 |
| UUCAAU | 0.566 |

Block 2
Target: RNA binding protein fox-1 homolog 2, RRM domain, GST-SBP tag (RBFOX2, Homo sapiens, UniProt O43251-10, residues 100-194)
Method: RNA Bind-n-Seq
Form: RNA
Sample: in vitro
Tested at: 365 nM
Setting: natural RNA segment, single round, ends assumed
Reference: no-protein control
Reading: higher = stronger binding
All sequences stand within: GGGAGUUCUACAGUCCGACGAUC … UGGAAUUCUCGGGUGCCAA
Construct (chain): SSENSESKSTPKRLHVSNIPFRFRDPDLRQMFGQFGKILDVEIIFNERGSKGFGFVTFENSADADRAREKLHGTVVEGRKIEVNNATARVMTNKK
| Sequence | RBNS enrichment (R) |
| --- | --- |
| UGGUGCCAGCACGGGAUCCCUGAAGUGACUCAGCCAGGCAGACAUGAGACAUGGCGGAGUGUCCAAAUGGAUCCUUUAUUGGUGGUAGAGCAAAAAAACCCAAACACGAU | 0.306 |
| UACCUAACAACAGCCAUUUCAGGCCCUCAAUAGUGCUUGCUUCAUCUUAGCCUGGCCCAGCCUGGGCUGCCUGGACAGGCUCUCCUGGCACAUUCCUGUACCCUUUAAAU | 0.515 |
| GGCCACCAGGCUCCGAGGGGCCGUGGUGACUCUUGAUCAAAGAGCACAGUGAACUGUCCCUUCUGAGUCUCCCUUUUCUACAGUUGAUAUAUUUGUAACUGGUACAAGAU | 0.235 |
| GCCUGCUUCUGGCCUGCCUGUGUCUGCUGCCGAGAAGCCCGUGCCCCCGGGAGGGCUGCCGCACUGCCAAAGAGUCUCCCUCCUCCUGGGGAAGGGGCUGCCAACGAACC | 2.31 |
| AAGCUUUGGUUGUAGUGUGAGCAUCAUUUGGCAUUAGAGAAACCAUGUACUAGUGGAAAAGUCUAGUGAAAAGGGCAGAAUCUGCAGCUGUAACAAAGCUAAGAACAGCA | 0.481 |
| CGCUACCACCUGUUUUCAAGAGAACAUAGAACUCCAACGUAACCGUCAUUUCAAAGAUUUACUGUAUGUAUAGUUGAUUUUGUGGACUGAAUUUAAUGCUUCCAAAUGUU | 0.764 |
| CUCUAGUGAUGUUCACCACUUUUAUUUAUUCCUACCUAUUUAUUUAUUUCAUAGCACCAGUAUUCAGGCUUUCAUGAACAUCAUUUUGGGGGAGCAAGACUUCAUCUGUA | 0.591 |
| UAAGGUGAAUAGACACAUUAAGGUGGCAAAUGAUCUACUUUUUCAAGUAAUAUUGCUCCUUUAAAAGGUGUGUUUUUAUUUCUGGUGAUGUCAGGGGCAACGGGGUAUCU | 0.366 |

Single results of other studies
P1: viral docking peptide; YKVKRRLVFGADD; partner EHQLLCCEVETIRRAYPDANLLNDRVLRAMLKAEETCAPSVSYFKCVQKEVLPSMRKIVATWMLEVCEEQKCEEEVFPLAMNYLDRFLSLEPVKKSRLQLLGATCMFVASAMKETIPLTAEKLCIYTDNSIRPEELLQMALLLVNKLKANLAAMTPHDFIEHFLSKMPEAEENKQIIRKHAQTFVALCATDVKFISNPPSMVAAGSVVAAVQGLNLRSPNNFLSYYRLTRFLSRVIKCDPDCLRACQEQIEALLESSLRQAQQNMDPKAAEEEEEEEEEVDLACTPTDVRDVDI
| Molecule | target | test | system | conditions | how to read | quantity | result |
| --- | --- | --- | --- | --- | --- | --- | --- |
| P1 A11T | CCND1, cyclin fold, Cln2 fusion (human) | yeast growth competition, sequencing | yeast | strong parent motif | reference: not given, higher = stronger binding | normalised enrichment score | 2.42 |
| HFADSRSWHHYSTGH | OGT (Homo sapiens, UniProt O15294) | binding, phage display NGS | peptide | concentration not given, normalized abundance | reference: input library | enrichment fold change | 3.94 |

Some of these lines once more (block 2):
| Sequence | RBNS enrichment (R) |
| --- | --- |
| GCCUGCUUCUGGCCUGCCUGUGUCUGCUGCCGAGAAGCCCGUGCCCCCGGGAGGGCUGCCGCACUGCCAAAGAGUCUCCCUCCUCCUGGGGAAGGGGCUGCCAACGAACC | 2.31 |
